# Assay results gathered from unrelated publications.
# Protocols differ between the studies behind these lines. Values joined by “and” are separate records of one study, mostly repeats; a detail may differ. ± marks the error that the study gave.
# SLCO1B3 M233I/S112A: Solute carrier organic anion transporter family member 1B3 (SLCO1B3, Homo sapiens, UniProt Q9NPD5, M233I/S112A)
# Chain of UniProt Q9NPD5 (whole entry, unmodified, looked up): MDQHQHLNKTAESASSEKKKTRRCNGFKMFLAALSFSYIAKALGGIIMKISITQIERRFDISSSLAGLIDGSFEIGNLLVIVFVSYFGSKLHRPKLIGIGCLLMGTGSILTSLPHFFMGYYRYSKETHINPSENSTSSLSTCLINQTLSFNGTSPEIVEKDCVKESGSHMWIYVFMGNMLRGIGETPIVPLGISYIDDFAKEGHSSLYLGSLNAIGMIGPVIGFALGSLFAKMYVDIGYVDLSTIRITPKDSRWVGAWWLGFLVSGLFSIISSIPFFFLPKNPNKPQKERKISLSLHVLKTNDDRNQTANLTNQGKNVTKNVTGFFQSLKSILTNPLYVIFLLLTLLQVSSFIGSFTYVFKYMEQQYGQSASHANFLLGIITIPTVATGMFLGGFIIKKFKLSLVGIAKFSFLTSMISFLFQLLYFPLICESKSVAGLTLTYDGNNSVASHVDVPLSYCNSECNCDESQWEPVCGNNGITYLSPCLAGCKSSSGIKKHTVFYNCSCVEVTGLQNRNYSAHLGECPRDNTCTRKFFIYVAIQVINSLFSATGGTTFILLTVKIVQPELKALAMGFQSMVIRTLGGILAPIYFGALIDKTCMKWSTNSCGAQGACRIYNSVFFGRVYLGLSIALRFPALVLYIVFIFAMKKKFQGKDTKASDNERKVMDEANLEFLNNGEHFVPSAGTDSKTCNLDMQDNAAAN
# Chain of UniProt P11712 (whole entry, looked up): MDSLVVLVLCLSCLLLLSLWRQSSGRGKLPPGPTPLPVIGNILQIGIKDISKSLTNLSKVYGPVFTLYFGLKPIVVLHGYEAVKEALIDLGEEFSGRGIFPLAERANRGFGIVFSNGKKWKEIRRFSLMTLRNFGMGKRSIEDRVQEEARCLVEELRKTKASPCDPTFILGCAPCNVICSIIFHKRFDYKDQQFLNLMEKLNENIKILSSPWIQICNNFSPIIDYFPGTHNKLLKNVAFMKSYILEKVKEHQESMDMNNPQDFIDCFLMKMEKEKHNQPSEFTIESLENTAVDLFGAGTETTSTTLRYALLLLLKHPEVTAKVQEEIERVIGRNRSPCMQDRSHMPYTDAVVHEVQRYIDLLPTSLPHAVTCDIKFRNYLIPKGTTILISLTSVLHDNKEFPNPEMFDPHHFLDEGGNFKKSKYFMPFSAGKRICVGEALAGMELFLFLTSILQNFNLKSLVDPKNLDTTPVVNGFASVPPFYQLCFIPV
# Chain of UniProt P08183 (whole entry, looked up): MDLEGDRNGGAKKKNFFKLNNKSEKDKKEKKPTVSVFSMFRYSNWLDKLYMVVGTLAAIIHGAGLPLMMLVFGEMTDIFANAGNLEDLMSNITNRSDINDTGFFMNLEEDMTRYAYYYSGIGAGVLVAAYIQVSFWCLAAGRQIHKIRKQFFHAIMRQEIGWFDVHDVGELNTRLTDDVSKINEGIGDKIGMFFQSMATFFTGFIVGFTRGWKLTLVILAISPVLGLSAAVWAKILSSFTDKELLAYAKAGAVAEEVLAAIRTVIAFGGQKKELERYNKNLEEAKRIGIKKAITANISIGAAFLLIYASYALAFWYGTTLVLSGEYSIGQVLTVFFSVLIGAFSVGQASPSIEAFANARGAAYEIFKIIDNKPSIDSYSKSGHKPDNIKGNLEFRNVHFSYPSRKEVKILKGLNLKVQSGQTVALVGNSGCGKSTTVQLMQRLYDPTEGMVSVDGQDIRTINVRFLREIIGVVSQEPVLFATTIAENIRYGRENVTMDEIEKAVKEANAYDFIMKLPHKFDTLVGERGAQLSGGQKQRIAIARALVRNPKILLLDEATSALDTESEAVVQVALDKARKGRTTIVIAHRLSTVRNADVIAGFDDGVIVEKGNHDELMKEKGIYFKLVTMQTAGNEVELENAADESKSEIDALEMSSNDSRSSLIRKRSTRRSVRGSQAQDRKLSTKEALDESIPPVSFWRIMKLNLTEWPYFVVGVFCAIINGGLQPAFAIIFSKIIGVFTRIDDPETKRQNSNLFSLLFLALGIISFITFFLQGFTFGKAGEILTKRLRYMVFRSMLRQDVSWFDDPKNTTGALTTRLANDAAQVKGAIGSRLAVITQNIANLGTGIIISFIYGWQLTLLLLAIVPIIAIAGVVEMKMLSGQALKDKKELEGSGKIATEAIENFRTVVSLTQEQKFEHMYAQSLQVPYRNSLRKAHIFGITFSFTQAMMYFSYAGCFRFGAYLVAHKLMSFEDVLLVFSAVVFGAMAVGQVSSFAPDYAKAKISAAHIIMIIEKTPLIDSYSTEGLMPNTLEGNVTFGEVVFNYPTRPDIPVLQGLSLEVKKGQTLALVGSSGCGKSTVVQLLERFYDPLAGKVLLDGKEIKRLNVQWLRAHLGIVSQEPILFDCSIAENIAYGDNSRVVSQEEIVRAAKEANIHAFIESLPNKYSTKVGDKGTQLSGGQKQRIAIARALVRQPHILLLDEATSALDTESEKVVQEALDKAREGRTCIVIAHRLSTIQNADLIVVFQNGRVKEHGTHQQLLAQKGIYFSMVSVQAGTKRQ
Structure (SMILES),tested on,assay,test system,conditions,scale,quantity,result
CCCC(=O)OCSc1ccccc1C(=O)NCCn1cc(C(=O)OCC)c(=O)c2cc3c(cc21)OCO3,CEM-SS,"cell viability, XTT",RPMI with 10% FBS,6 days,,TC50,18.8 ± 0.8 µM
N#Cc1ccc2c(c1)[C@H]1CCCN(C(=O)c3ccc4[nH]cnc4c3)[C@H]1C2,,,"human, male","240 mg, end of trial",,androstenedione level,7.5 nmol/L
CC(C)n1c(/C=C/C(O)CC(O)CC(=O)O)c(-c2ccc(F)cc2)c2ccccc21 (stereo not shown),SLCO1B3 M233I/S112A,"uptake, substrate",HEK293-A stably expressing SLCO1B3,2 min,,Vmax,274 ± 5.73 pmol/mg protein/min
Cc1cn([C@H]2C[C@H](N=[N+]=[N-])[C@@H](CO)O2)c(=O)[nH]c1=O,CEM-SS,XTT,,no added glutathione,,TC50,> 0.5 µM
COc1cc2c(cc1OC)[C@@H]1C(=O)c3ccc4c(c3O[C@@H]1CO2)C=CC(C)(C)O4,human adenovirus C5,"viral progeny production, reporter virus",A549,,relative to: CC50 over EC50,selectivity index,250
CCc1cc(C(=O)NC)c2nccc(N3CCc4c(cc(Cn5ccnc5)cc4-c4cn(C)nc4C(F)(F)F)C3=O)c2c1,,,Sprague Dawley rats,"oral, 50 mg/kg once daily, 7 days",,blood HDW,21.7 ± 0.83 g/L
Cc1cccc(CNC(=O)c2cn(CCNC(=O)c3ccccc3Sc3c([N+](=O)[O-])ncn3C)c3cc4c(cc3c2=O)OC(F)(F)O4)n1,CEM-SS,"cell viability, XTT",,"6 days, RPMI with 10% FBS, added: glutathione 1 mM",,TC50,> 100 µM
CC(C)c1nc(N(C)S(C)(=O)=O)nc(-c2ccc(F)cc2)c1/C=C/[C@@H](O)C[C@@H](O)CC(=O)O,"SLCO1B3 (Homo sapiens, UniProt Q9NPD5)","substrate, uptake",HEK293-A stably expressing SLCO1B3,2 min,,Km,13.6 ± 9.3 µM
Cc1c(-c2ccc(N3CCc4cccc(C(=O)Nc5nc6ccccc6s5)c4C3)nc2C(=O)O)cnn1CC12CC3(C)CC(C)(C1)CC(OCCNCC[C@H](O)CO)(C3)C2,,,anaesthetised male beagle dogs,"intravenous infusion, 0.3 mg/kg/min, 90 min",relative to: vehicle,cardiac output change,-26%
Cc1cc(N)c2c(OCC(C)(C)C(=O)NC(C)C)cccc2n1,Salmonella typhimurium,"reverse mutation, plate incorporation",TA98,"100 µg/plate, without S9",,mean revertant colonies,14 colonies/plate
CNCCOC12CC3(C)CC(C)(CC(Cn4ncc(-c5ccc(N6CCc7cccc(C(=O)Nc8nc9ccccc9s8)c7C6)nc5C(=O)O)c4C)(C3)C1)C2,,,anaesthetised male beagle dogs,"intravenous bolus, 0.03 mg/kg, 60 min",relative to: baseline,cardiac output change,-20%
CCCC(=O)OCSc1ccccc1C(=O)NCCn1cc(C(=O)NCc2nc(-c3ccccn3)no2)c(=O)c2cc3c(cc21)OCO3,CEM-SS,"cell viability, XTT",RPMI with 10% FBS,6 days,,TC50,> 100 µM
C=CC(=O)N(C)CCOc1c(N)ncnc1-c1cc(F)cc(NC(=O)c2ccc(C3CC3)cc2F)c1C,human hepatocytes,refers to: CYP1A2 mRNA,,,relative to: vehicle,maximum fold induction,5.47
CCCC(=O)OCSc1ccccc1C(=O)NCCOc1ccnc2ccc(OC)cc12,CEM-SS,"cell viability, XTT",RPMI with 10% FBS,6 days,,TC50,73.8 ± 8.3 µM
Cc1cc(Nc2ccc(S(F)(F)(F)(F)F)cc2)n2nc(C(C)(F)F)nc2n1,Plasmodium falciparum,12-lead ECG,malaria patients,"oral, 250 mg, increase above 60 ms",,patients with QTcB increase,0%
CCc1cc(/C(C)=N/OCc2ccc(C3CCCCC3)c(C(F)(F)F)c2)ccc1CN1CC(C(=O)O)C1,"Cytochrome P450 2C9 (CYP2C9, Homo sapiens, UniProt P11712)","time-dependent inhibition, inhibitor, refers to: 4'-hydroxydiclofenac",pooled human liver microsomes,added: diclofenac 10 µM,,"Ki,u",0.26 µM
CC[C@H](CO)N(CCN(N=O)[C@H](CC)CO)N=O,Salmonella typhimurium,plate incorporation,"TA1535, water","50 µg/plate, without S9",,revertant colonies per plate,19 ± 5
CCCC(=O)OCSc1ccccc1C(=O)NCCOc1ccnc2ccc(Cl)cc12,CEM-SS,"cell viability, XTT",RPMI with 10% FBS,6 days,,TC50,46.3 µM
CC(CCC(=O)O)C(=O)O (stereo not shown),,"binding, MIDAS equilibrium dialysis LC-MS",A2AR-BRIL thermostabilized,concentration not given,relative to: no-protein control,log2 fold change,-0.775
CC(C)Nc1ccnc(Nc2cccc(-c3ccccn3)c2)n1,P-glycoprotein (human MDR1),,MDR1-MDCKII,"10 µM, 1 h, pH 7.4",relative to: B-A over A-B,efflux ratio,2.66
CNC(=O)c1cc(Oc2ccc(NC(=O)Nc3ccc(Cl)c(C(F)(F)F)c3)cc2)ccn1,SLCO1B3 M233I/S112A,"uptake, substrate",HEK293-A stably expressing SLCO1B3,2 min,,Vmax,307 ± 41.4 pmol/mg protein/min
CN(C(=O)C(C)(C)c1cc(C(F)(F)F)cc(C(F)(F)F)c1)c1cnc(N2C[C@H]3COCCN3C[C@H]2CO)cc1-c1ccc(F)cc1[14CH3],cryopreserved human hepatocytes,,,"0.5 µM, mean of three donors, added: 5 µM cobicistat and 1 µM CYP3cide",,fraction metabolized via UGT,11.9%
CC(C)Nc1ccnc(Nc2cccc(C(C)(C)C)c2)n1,P-glycoprotein (human MDR1),,MDR1-MDCKII,"10 µM, 1 h, pH 7.4",relative to: B-A over A-B,efflux ratio,0.81
CC[C@H](C)C(=O)N1CCC(NC(=O)Nc2ccc(OC(F)(F)F)c(F)c2)CC1,Caco-2,Caco-2 permeability,,"10 µM, 60 min, pH 7.4 apical, 7.4 basolateral, mean",basolateral to apical,percent recovery,81%
COc1cc(/C=C/C=C2\SC(=S)NC2=O)cc(OC)c1O,HeLa,CellTiter-Glo,,"40 µM, 24 h, unit not given",relative to: untreated,viability,0.82 and 0.843
CNC(=O)c1ccc(-c2cnc3ncc(Cc4ccc5ncccc5c4)n3n2)cc1F,,refers to: Pyrexia,other cancer patients,"oral, 600 mg twice daily, expansion cohort, grade 3-4",,patients with adverse event,0%
CCCC(=O)OCSc1ccccc1C(=O)NCCn1ccc(=O)c2cc(C(F)(F)F)ccc21,CEM-SS,"cell viability, XTT",RPMI with 10% FBS,6 days,,TC50,44.8 ± 10.4 µM
CC(=O)N[C@@H]1[C@@H](O)[C@H](O)[C@@H](CO)O[C@@H]1O,,"binding, MIDAS equilibrium dialysis LC-MS",A2AR-BRIL thermostabilized,concentration not given,relative to: no-protein control,log2 fold change,-0.117
O=C(Nc1nc2cccc(-c3ccc(CN4CCS(=O)(=O)CC4)cc3)n2n1)C1CC1,,refers to: vertigo,rheumatoid arthritis patients,"oral, 200 mg once daily, 4 weeks, any relatedness",,treatment-emergent adverse events,0%
CCCC(=O)OCSc1ccccc1C(=O)NCCOc1ccnc2ccc([N+](=O)[O-])cc12,CEM-SS,"cell viability, XTT",RPMI with 10% FBS,6 days,,TC50,14.9 µM
CC[C@H]1[C@@H](O)[C@@H]2[C@H](CC[C@]3(C)[C@@H]([C@H](C)CCNC(=O)NS(=O)(=O)c4ccc(C(C)(C)C)cc4)CC[C@@H]23)[C@@]2(C)CC[C@@H](O)C[C@@H]12,"ABCB1 (Homo sapiens, UniProt P08183)",,"human, plasma","arithmetic mean, added: quinidine",,Tlast,90.9 h

# Some of these lines once more:
Structure (SMILES),tested on,assay,test system,conditions,scale,quantity,result
Cc1cc(Nc2ccc(S(F)(F)(F)(F)F)cc2)n2nc(C(C)(F)F)nc2n1,Plasmodium falciparum,12-lead ECG,malaria patients,"oral, 250 mg, increase above 60 ms",,patients with QTcB increase,0%
CC(C)c1nc(N(C)S(C)(=O)=O)nc(-c2ccc(F)cc2)c1/C=C/[C@@H](O)C[C@@H](O)CC(=O)O,"SLCO1B3 (Homo sapiens, UniProt Q9NPD5)","substrate, uptake",HEK293-A stably expressing SLCO1B3,2 min,,Km,13.6 ± 9.3 µM
